Measurements collected from several papers.
Each line is one published result; not all experiments were run side by side. ± marks the error that the study gave.

| Substance | target or system | assay | system | conditions | scale | quantity | value |
| --- | --- | --- | --- | --- | --- | --- | --- |
| Nc1ncnc2c([C@@H]3N[C@H](CO)[C@@H](O)[C@H]3O)c[nH]c12 | Marburg virus | viral replication, antibody staining | HeLa, Musoke | 25 µM, 12 h |  | infected cells | 1.2% |
| EPVLKGVKL |  | AIM | peptide, CD8+ T cells from PBMC, human donors | HLA-B*07:02 restricted, unit not given | reference: positive over tested donors | frequency of responding donors | 20 |
| O=C(O)/C=C/c1ccc(Cn2ccnc2)cc1 | Replicase polyprotein 1ab, main protease (rep, Severe acute respiratory syndrome coronavirus 2, UniProt P0DTD1) | reporter gene (Gaussia luciferase), inhibitor |  | 20 µM |  | inhibition | 0.626% |
| CC[C@H](C)[C@H](NC(=O)[C@H](CC(C)C)NC(=O)[C@H](Cc1c[nH]c2ccccc12)NC(=O)[C@H](CCC(N)=O)NC(=O)[C@@H](NC(=O)[C@H](Cc1ccccc1)NC(=O)[C@H](C)NC(=O)[C@H](CCCCNC(=O)COCCOCCNC(=O)COCCOCCNC(=O)CC[C@H](NC(=O)CCCCCCCCCCCCCCCCCCC(=O)O)C(=O)O)NC(=O)[C@H](CCC(N)=O)NC(=O)[C@H](C)NC(=O)[C@@H](NC(=O)[C@H](CCCCN)NC(=O)[C@H](CC(=O)O)NC(=O)[C@H](CC(C)C)NC(=O)C(C)(C)NC(=O)[C@@H](NC(=O)[C@H](CO)NC(=O)[C@H](Cc1ccc(O)cc1)NC(=O)[C@H](CC(=O)O)NC(=O)[C@H](CO)NC(=O)[C@@H](NC(=O)[C@H](Cc1ccccc1)NC(=O)[C@@H](NC(=O)CNC(=O)[C@H](CCC(=O)O)NC(=O)C(C)(C)NC(=O)[C@@H](N)Cc1ccc(O)cc1)[C@@H](C)O)[C@@H](C)O)[C@@H](C)CC)[C@@H](C)CC)C(C)C)C(=O)N[C@@H](C)C(=O)NCC(=O)NCC(=O)N1CCC[C@H]1C(=O)N[C@@H](CO)C(=O)N[C@@H](CO)C(=O)NCC(=O)N[C@@H](C)C(=O)N1CCC[C@H]1C(=O)N1CCC[C@H]1C(=O)N1CCC[C@H]1C(=O)N[C@@H](CO)C(N)=O |  |  | healthy subjects, single ascending dose | 2.5 mg, baseline |  | serum AST | 19.7 ± 5.6 U/L |
| LTYTGAIKLDDKDPN | human CD4 T cells | AIM | peptide |  |  | responding donors | 17% |

Excerpt of the above:
| Substance | target or system | assay | system | conditions | scale | quantity | value |
| --- | --- | --- | --- | --- | --- | --- | --- |
| O=C(O)/C=C/c1ccc(Cn2ccnc2)cc1 | Replicase polyprotein 1ab, main protease (rep, Severe acute respiratory syndrome coronavirus 2, UniProt P0DTD1) | reporter gene (Gaussia luciferase), inhibitor |  | 20 µM |  | inhibition | 0.626% |
